# Results gathered from unrelated publications.
# Numbered parts are unrelated; each lists some results of a single study. Positions count from the first letter of the parent shown.

# Sample 1
# Target: Interferon regulatory factor 5, full length, phosphomimetic (IRF5, Homo sapiens, UniProt Q13568-2, residues 1-514, S451D/S453D/S456D/S462D)
# Technique: protein-binding microarray
# Molecule type: double-stranded DNA, one strand shown
# Medium: in vitro
# Concentration: 940 nM top
# Setting: 60-bp whole probe
# Added: salmon DNA 0.4 mg/ml
# Reference: random background probes
# Reading: higher = stronger binding
# All sequences stand within: GCCTAGCAC … GTCTTGATTCGCTTGACGCTGCTG
Strand,fitted relative affinity [z-score]
GATATTATATCTGTGTTATTGTGCTAG,-0.0239
CTTAGTTTGTATATATTTTAGTGCTAG,0.458
TTAGGTCTCGGTCTCGCTTAGTGCTAG,5.09
TTAGATAGCAGTATCGATTAGTGCTAG,3.38
CATTTTCTTTAACTCATTCTGTGCTAG,1.33
TGAGATATCGGGTATCGATTAGTGCTA,3.31
TTAGATTTCGGGACTGGACTAGTGCTA,0.353
GACGATTCCATTTTCGAGACGTGCTAG,1.19
TCATTTTGGTTTTCTCTAACTGTGCTA,1.51
TCATCATTATTGTCTCCCACTGTGCTA,1.32
TCATCATTTTCTCTGTTACTGTGCTAG,2.49
CTCTACTTGTGTCTAGAGATGTGCTAG,0.0132
TTATGTATCGGTATCGGTTAGTGCTAG,6.92
TTAGTTTTCGGTCTCGGTTAGTGCTAG,6.13

# Sample 2
# Target: ABI1, truncated, D143A, DHFR fusion (Arabidopsis thaliana)
# Technique: DHFR PCA, deep sequencing
# Medium: yeast
# Setting: methotrexate growth selection, single substitutions
# Added: (+)-ABA 0 µM
# Reference: wild-type fitted maximum
# Reading: higher = stronger binding
# Parent: PYL1, truncated, DHFR fusion (Arabidopsis thaliana); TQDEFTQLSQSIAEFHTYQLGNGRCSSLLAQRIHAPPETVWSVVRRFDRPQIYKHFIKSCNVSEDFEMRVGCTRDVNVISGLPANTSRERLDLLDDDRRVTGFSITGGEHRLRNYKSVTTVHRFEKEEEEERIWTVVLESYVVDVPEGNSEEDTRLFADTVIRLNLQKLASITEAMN
Substitution,relative binding score [%]
I133Y,19.6
P36L,9.11
D92T,-2.51
F15D,1.87
G81E,9.43
R45I,-1.25

# Sample 3
# Target: RNA binding protein fox-1 homolog 2, RRM domain, GST-SBP tag (RBFOX2, Homo sapiens, UniProt O43251-10, residues 100-194)
# Technique: RNA Bind-n-Seq
# Molecule type: RNA
# Medium: in vitro
# Concentration: 365 nM
# Setting: natural RNA segment, single round, ends assumed
# Reference: no-protein control
# Reading: higher = stronger binding
# All sequences stand within: GGGAGUUCUACAGUCCGACGAUC … UGGAAUUCUCGGGUGCCAA
# Construct (chain): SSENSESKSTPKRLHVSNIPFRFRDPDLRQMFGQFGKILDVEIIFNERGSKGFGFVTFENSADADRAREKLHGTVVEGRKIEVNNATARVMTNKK
Strand,RBNS enrichment (R)
GCAAUGGUUGUCAGCUUCCUCUGAAGACCGAGCUUGACGCCUCCAUGCCAGCUGCCGUUGGAGACGCAAAGCCAAGCAAGGGUCAGGAGGGAAGCUGGCCCGGCUGACUG,0.394
UUAGGGUUGCUCAACCCAUAUUAUUGGCUGUACAUCCUGGUCACUUCUGACUUCUGUUUUUACUAAUGGAAGCUUUGCAAAUUGAAUUCUCAGUGAGUUGUAUAUUUAUA,0.31
AUUCUGAAAGUUGUCUAGUUCUUCCUUCAUCACACGUGCUUCUCAUCGAAACCCUGGUUUCAGGAUGGAUCAAGUGCUGUUACAGCUCAUGUUCCUUAGACCUGAUUUGU,0.192
UUAGGGUCCACGCCCAUGUACCUGAAACAUUUGGAAGCCCCAUAAUUGUUCUAGUUAGAAAGGGUUCAGGGCAUGGGGAGAGGAGUGGGAAAUUGAUUAAAGGGGCUGUC,0.682
UUCAUCAGAACCCUAAAAUGGUCGUUGAAGGCGCCUGGGCCGCAGCCCAGCAGUAGUUGGAGAGGCAGGCAGAGGGCAGUGGUUCUCCCAAAUAGGAGACCUGGGGCCUG,0.314
GGCUCCGAGGCUGGGGGAUCUGCUUGGAGUUUUCUGCCCCCCACCCCAAACUUCUGUCGAGGAGCAAGGCUUGCCAGCAAGUCAGAAGGAUUUGAACCGAGCAGCCAAUC,0.474
CCUGCUCUAGGGCCUGCCCAGCCCUGAGGGAGGCUAGUCAGCGCCUCCCUACUGCGCCCCUGUAGGCAGGAGGAAGCAGCCCAUCAGCCUAGGAAGCCAACAGCAGGGCA,0.387
GUGCUCAUCUCAUUGAGGAGCAGAUUAAUUUUGGGUAAUAAGUGUGAUCAUUGUUGAACUUCAGCUCCAGUGUCUCUCCAGAAUAAGACAUUGGCAUUCAAAUGUCUAUA,0.451
GAGGGUCAAAUAUUUAGUGCAUUUUAUAGAAGUGUAAAUUAUUUAAAUCUUAUGUGGAUUCUUUUAUUUUUUCCUUAAACUUCUUAGUGUUUCUGAAACUUCUAAAAAAG,0.77
GAGACGCUGUAUGUGUAAACAUCCUGUAAACUUCGUACAAAUGUGAAGUAUUAUUAAUAUUGCUACAGUGUUAUUAUGAUAUUGUUACUAUUAACCAUGUUGGGUGGAUA,0.48
GUGAGCAACUCUGUGGCUAGCAAAAGAGAAGUUUAUUUGUGCCCAGCCAUUGGUCACCUUGGGUGAUGCACCAGAUAGCAGGCAGAUGUUGGUUCAUUGGCCUUCGUCCU,0.26
CCAAGCAAGGUCAUUGUUGUGAAAAGUCUGUAAAUGCUUCUAACUCUUCCCCCUCUUAAAAUCAUAAUAGUUGUACAGAAUUUUAAAAAGGAAAAGUUUAAAAUACCUAU,0.572

# Single results of other studies
Substance,target,assay,system,conditions,how to read,endpoint,result
"PhoQ, residues 284 288 289 292 302 303 SVTLVV","PhoP, residues 12 14 15 18 19 TPLRH (Escherichia coli, UniProt P23836)","Sort-seq, item: YFP reporter",E. coli,"PhoQ-PhoP variant library, added: 10 µM Mg2+","reference: high Mg2+ state, higher = stronger signaling",fold induction,0.881
